{"data": "Measurements from different studies", "Voltage-dependent P/Q-type calcium channel subunit alpha-1A": "Voltage-dependent P/Q-type calcium channel subunit alpha-1A (Homo sapiens, UniProt O00555)", "gag-pol reverse transcriptase": "Gag-Pol polyprotein, reverse transcriptase (gag-pol, Human immunodeficiency virus 1, UniProt P03366)", "ACTA1 pyrene-labeled": "Actin, alpha skeletal muscle, pyrene-labeled (ACTA1, Oryctolagus cuniculus, UniProt P68135)", "note": "Several values in a cell are separate wells, animals, samples, runs or records."}
{"SMILES": "c1ccc(C(NCCNC(c2ccccc2)c2ccccc2)c2ccccc2)cc1", "target": "Ca2+/calmodulin-dependent protein kinase II (rat)", "assay": "Eurofins selectivity panel", "conditions": "10 µM", "inhibition": "4%"}
{"SMILES": "Nc1ccncc1", "target": "Voltage-dependent P/Q-type calcium channel subunit alpha-1A", "assay": "antagonist", "conditions": "30 µM", "inhibition": "26%"}
{"SMILES": "CC(=O)c1c(O)c(C)c(O)c(Cc2c(O)c3c(c(C(=O)/C=C/c4ccccc4)c2O)OC(C)(C)C=C3)c1O", "target": "Txnrd1 (Rattus norvegicus, UniProt O89049)", "assay": "enzyme activity, inhibitor", "conditions": "20 µM, 30 min, pH 7.5", "inhibition": "86.4%"}
{"SMILES": "O=C(Nc1cccnn1)N1CCC(=Cc2cccc(Oc3ccc(C(F)(F)F)cn3)c2)CC1", "target": "ryanodine receptor RyR3, rat", "assay": "binding", "conditions": "10 µM, together with: [3H]ryanodine", "inhibition": "-16%"}
{"SMILES": "O=c1ccc2ccccc2o1", "target": "central benzodiazepine receptor", "assay": "radioligand binding", "conditions": "10 µM", "inhibition": "1.37%"}
{"SMILES": "O=C1CSC(c2c(F)cccc2Cl)N1c1cccc(S(=O)(=O)Nc2nccs2)c1 (stereo not shown)", "target": "gag-pol reverse transcriptase", "conditions": "4 µM", "inhibition": "44.8%"}
{"SMILES": "O=C(Nc1cnccc1Cl)N1CCN(Cc2ccc3c(c2)OC(F)(F)O3)CC1", "target": "GNRHR (Homo sapiens, UniProt P30968)", "assay": "radioligand binding", "conditions": "concentration not given", "inhibition": "0% and 8%"}
{"SMILES": "C/C1=C/C(=O)O[C@@H]2C[C@@H](CC[C@H](C)/C=C\\C=C\\CC1)O[C@@](OCCc1ccccc1)([C@@H]1CSC(=O)N1)C2", "target": "ACTA1 pyrene-labeled", "assay": "actin polymerization, pyrene actin", "conditions": "1 µM", "how to read": "reference: vehicle", "inhibition": "94%"}
{"SMILES": "O=C1CSC(c2cccc(Cl)c2)N1c1cccc(S(=O)(=O)Nc2nccs2)c1 (stereo not shown)", "target": "gag-pol reverse transcriptase", "conditions": "4 µM", "inhibition": "65.1%"}
{"SMILES": "COc1cc(Nc2ncc(F)c(Nc3ccc4c(n3)NC(=O)C(C)(C)O4)n2)cc(OC)c1OC", "target": "CDK15 (Homo sapiens, UniProt Q96Q40)", "assay": "kinase binding, KINOMEscan", "conditions": "10 µM", "inhibition": "2%"}
{"SMILES": "C#Cc1n[nH]c2c(-c3cn([C@@H](C)c4ccccc4)c(=O)[nH]c3=O)cc(F)cc12", "target": "Phosphatidylinositol 4,5-bisphosphate 3-kinase catalytic subunit alpha isoform, with p85 alpha (PIK3CA, Homo sapiens, UniProt P42336)", "assay": "kinase activity, inhibitor", "conditions": "100 nM", "inhibition": "-10.7%"}
{"SMILES": "O=C(Nc1cccnn1)N1CCN([C@@H]2CCOc3cc(C(F)(F)F)ccc32)CC1", "target": "CHRNA1/CHRNB1/CHRND (Homo sapiens, UniProt P02708+P11230+Q07001)", "assay": "binding", "conditions": "20 µM, muscle-type nicotinic receptor", "inhibition": "0%"}
{"SMILES": "CN1CCN(c2cc(-c3ccncc3)c(-c3ccc4ccccc4c3)nn2)CC1", "target": "LTB4R (Homo sapiens, UniProt Q15722)", "assay": "antagonist, FLIPR", "conditions": "10 µM", "inhibition": "11.1%"}
{"SMILES": "Cc1nc(Nc2ccc(CC(=O)O)cc2)nc(Nc2ccc(F)c(C(F)(F)F)c2)c1C", "target": "3',5'-cyclic-AMP phosphodiesterase 4C, isoform PDE4C1 (PDE4C, Homo sapiens, UniProt Q08493)", "assay": "enzyme activity, fluorescence polarization", "conditions": "200 µM", "inhibition": "no inhibition"}
{"SMILES": "O=C1CSC(c2ccc(Cl)cc2)N1c1cccc(S(=O)(=O)Nc2nccs2)c1 (stereo not shown)", "target": "gag-pol reverse transcriptase", "conditions": "4 µM", "inhibition": "35.3%"}
{"SMILES": "CN(C(=O)n1cnc(-c2ccc[n+]([O-])c2)c1)C1CCCCC1", "target": "ryanodine receptor RyR3, rat", "assay": "binding", "conditions": "10 µM, together with: [3H]ryanodine", "inhibition": "-7%"}
{"SMILES": "O=C1CSC(c2ccc(Cl)cc2)N1c1nc(-c2ccc(S(=O)(=O)N3CCCC3)cc2)cs1 (stereo not shown)", "target": "gag-pol reverse transcriptase", "conditions": "4 µM", "inhibition": "78.1%"}
{"SMILES": "COC1(C2CSC(=O)N2)CC2CC(CCC(C)C=CC=CCCC(C)=CC(=O)O2)O1 (stereo not shown)", "target": "ACTA1 pyrene-labeled", "assay": "actin polymerization, pyrene actin", "conditions": "1 µM", "how to read": "reference: vehicle", "inhibition": "21%"}
{"SMILES": "COc1cccc(C2SCC(=O)N2c2nc(-c3ccc(S(=O)(=O)N4CCOCC4)cc3)cs2)c1 (stereo not shown)", "target": "gag-pol reverse transcriptase", "conditions": "4 µM", "inhibition": "7.63%"}
{"SMILES": "CC[C@H](C)[C@H](NC(=O)[C@@H](NC(=O)[C@H](N)Cc1ccccc1)C(C)C)C(=O)N[C@@H](C)C(N)=O", "target": "APP (Homo sapiens, UniProt P05067)", "assay": "amyloid-beta aggregation, thioflavin T fluorescence", "conditions": "1.0 µM, 48 h, together with: 2 µM amyloid-beta", "inhibition": "89%"}
{"SMILES": "NC(=O)c1cccc(-c2c[nH]c3ncnc(N4CCOCC4)c23)c1", "target": "STK3 (Homo sapiens, UniProt Q13188)", "assay": "kinase activity, inhibitor, PhosphoSens kinetic", "conditions": "concentration not given, 2 h, together with: ATP at Km", "inhibition": "inhibited"}
{"SMILES": "CC(C)N1CCC[C@H]1CNC(=O)c1cn(C2CCCC2)c(=O)c2c1c1ccccc1n2C", "target": "nicotinic acetylcholine receptor (human)", "assay": "radioligand binding", "conditions": "10 µM", "inhibition": "8%"}
{"SMILES": "C#Cc1n[nH]c2c(-c3cn([C@@H](C)c4ccccn4)c(=O)[nH]c3=O)cc(F)cc12", "target": "5'-AMP-activated protein kinase catalytic subunit alpha-2, with beta1 gamma1 (PRKAA2, Homo sapiens, UniProt P54646)", "assay": "kinase activity, inhibitor", "conditions": "100 nM", "inhibition": "4%"}
{"SMILES": "C/C1=C/C(=O)O[C@@H]2C[C@@H](CC[C@H](C)/C=C\\C=C\\CC1)O[C@@](OC(=O)c1ccccc1)([C@@H]1CSC(=O)N1)C2", "target": "ACTA1 pyrene-labeled", "assay": "actin polymerization, pyrene actin", "conditions": "0.1 µM", "how to read": "reference: vehicle", "inhibition": "23%"}
{"SMILES": "CN(CCN1CCC(OC(=O)Nc2ccccc2-c2ccccc2)CC1)C(=O)c1ccc(CN2CCC(C(N)=O)CC2)cc1", "target": "rat central I2 site", "assay": "radioligand binding", "conditions": "1 µM, together with: [3H]idazoxan 2.0 nM", "inhibition": "17%"}
{"SMILES": "COCc1c(-c2cc3cc(C)cc(OC)c3s2)c2c(N)ncnn2c1CN1CCNC(=O)C1", "target": "phosphodiesterase 3", "assay": "enzyme activity", "conditions": "10 µM", "inhibition": "-16%"}
{"SMILES": "Cc1ncc(C)n2nc(/C=C/c3nc(N4CCCC4)cc(N4CCOCC4)n3)nc12", "target": "PCP receptor", "assay": "binding", "conditions": "10 µM", "inhibition": "4%"}
{"SMILES": "CCN(C)C(=O)Oc1cccc([C@H](C)N(C)C)c1", "target": "Voltage-dependent P/Q-type calcium channel subunit alpha-1A", "assay": "ion current, antagonist", "system": "HEK293", "conditions": "10 µM", "inhibition": "0%"}
{"SMILES": "COC(C(=O)N1C(=O)SCC1C1(OC)CC2CC(CCC(C)C=CC=CCCC(C)=CC(=O)O2)O1)c1ccccc1 (stereo not shown)", "target": "ACTA1 pyrene-labeled", "assay": "actin polymerization, pyrene actin", "conditions": "1 µM", "how to read": "reference: vehicle", "inhibition": "13%"}
{"SMILES": "O=C1CSC(c2ccc(F)cc2)N1c1nc(-c2ccc(S(=O)(=O)N3CCCC3)cc2)cs1 (stereo not shown)", "target": "gag-pol reverse transcriptase", "conditions": "4 µM", "inhibition": "8.36%"}
{"SMILES": "Cn1cc(-c2cc(F)cc(N3CCn4c(cc5c4CCCC5)C3=O)c2CO)cc(Nc2ccc(N3CCN(C4COC4)CC3)cn2)c1=O", "target": "Protein kinase C beta type, isoform beta-II (PRKCB, Homo sapiens, UniProt P05771)", "assay": "kinase activity, inhibitor, SelectScreen kinase profiling", "conditions": "0.1 µM, together with: ATP at apparent Km", "inhibition": "5%"}
{"SMILES": "CCN1C(=O)SC[C@H]1[C@@]1(O)C[C@H]2C[C@@H](CC[C@H](C)/C=C\\C=C\\CC/C(C)=C\\C(=O)O2)O1", "target": "ACTA1 pyrene-labeled", "assay": "actin polymerization, pyrene actin", "conditions": "0.1 µM", "how to read": "reference: vehicle", "inhibition": "32%"}
{"SMILES": "COc1ccc(N2C(=O)N(c3c(C)cccc3Cl)Cc3cnc(Nc4ccc(C5CCN(C)CC5)cc4OC)nc32)nc1", "target": "MAPKAPK2 (Homo sapiens, UniProt P49137)", "assay": "kinase activity", "conditions": "0.5 µM", "inhibition": "5%"}
{"SMILES": "Cn1cc(-c2cccc(N3CCc4c(sc5c4CC(C)(C)C5)C3=O)c2CO)cc(Nc2ccncn2)c1=O", "target": "PDGFRA (Homo sapiens, UniProt P16234, V561D)", "assay": "kinase activity", "conditions": "1 µM", "inhibition": "6%"}
{"note": "Excerpt of the above:"}
{"SMILES": "O=C(Nc1cnccc1Cl)N1CCN(Cc2ccc3c(c2)OC(F)(F)O3)CC1", "target": "GNRHR (Homo sapiens, UniProt P30968)", "assay": "radioligand binding", "conditions": "concentration not given", "inhibition": "0% and 8%"}
{"SMILES": "Cc1nc(Nc2ccc(CC(=O)O)cc2)nc(Nc2ccc(F)c(C(F)(F)F)c2)c1C", "target": "3',5'-cyclic-AMP phosphodiesterase 4C, isoform PDE4C1 (PDE4C, Homo sapiens, UniProt Q08493)", "assay": "enzyme activity, fluorescence polarization", "conditions": "200 µM", "inhibition": "no inhibition"}
{"SMILES": "O=C1CSC(c2cccc(Cl)c2)N1c1cccc(S(=O)(=O)Nc2nccs2)c1 (stereo not shown)", "target": "gag-pol reverse transcriptase", "conditions": "4 µM", "inhibition": "65.1%"}
{"SMILES": "Nc1ccncc1", "target": "Voltage-dependent P/Q-type calcium channel subunit alpha-1A", "assay": "antagonist", "conditions": "30 µM", "inhibition": "26%"}
{"SMILES": "CN(CCN1CCC(OC(=O)Nc2ccccc2-c2ccccc2)CC1)C(=O)c1ccc(CN2CCC(C(N)=O)CC2)cc1", "target": "rat central I2 site", "assay": "radioligand binding", "conditions": "1 µM, together with: [3H]idazoxan 2.0 nM", "inhibition": "17%"}
